Measurements collected from several papers.
Protocols differ between the studies behind these lines.

Compound	host	matrix	route	dose	setting	Cmax
CC12CC3CC(C)(C1)CC(NC(=O)Nc1ccc(C(=O)N4CCC[C@H](C(N)=O)C4)cc1F)(C3)C2	Sprague-Dawley rat	plasma	intravenous	10 mg/kg	–	7110 nM
CN1Cc2c(Cl)cc(Cl)cc2[C@H](c2ccc(S(=O)(=O)NCCOCCOCCNC(=O)CCC(=O)NCCOCCOCCNS(=O)(=O)c3ccc([C@@H]4CN(C)Cc5c(Cl)cc(Cl)cc54)cc3)cc2)C1	male Sprague-Dawley rat	plasma	oral	30 mg/kg	–	< 2 ng/mL
O=C(Nc1ccc(C(F)(F)F)nc1)N1CCC(Cc2cccc(Oc3ccc(C(F)(F)F)cn3)c2)CC1	male Sprague-Dawley rat	blood	oral	1 mg/kg	–	95 nM
CC12CC3CC(C)(C1)CC(NC(=O)Nc1ccc(C(=O)N4CCCC(C(N)=O)C4)cc1)(C3)C2 (stereo not drawn)	Sprague-Dawley rat	plasma	oral	10 mg/kg	–	120 nM
CC1(C)CNC(=O)c2ccccc21	rat	plasma	oral	5 mg/kg	single dose	1270 ng/mL
CCNC(=O)[C@@H]1CCCN1C(=O)[C@H](CCCNC(=N)N)NC(=O)[C@H](CC(C)C)NC(=O)[C@@H](CC(C)C)NC(=O)[C@H](Cc1ccc(O)cc1)NC(=O)[C@H](CO)NC(=O)[C@H](Cc1c[nH]c2ccccc12)NC(=O)[C@H](Cc1c[nH]cn1)NC(=O)[C@@H]1CCC(=O)N1	male Sprague-Dawley rat	plasma	subcutaneous	12.5 mg/kg	single dose	2780 ng/mL
N#Cc1cnc2cc(OCC3CCNCC3)c(F)cc2c1Nc1cc(F)c(OCc2cccc(Cl)n2)cc1Cl	male Sprague-Dawley rat	plasma	oral	100 mg/kg	–	396 ng/mL
Cc1ccc(OCC(=O)N(Cc2cccs2)c2ccn[nH]2)cc1	female Sprague-Dawley rat	plasma	oral	10 mg/kg	single dose	8.51 ng/mL
O=c1c2cc(Cl)ccc2sc2c(NCc3ccccc3)nc3ccccc3c12	male Sprague-Dawley rat	plasma	intravenous	3 mg/kg	single dose	1450 ng/mL
CC(C)(C)C(=O)Nc1ccc2[nH]c(CN3CCC(N(CCCN4CCOCC4)CC4OC(n5cnc6c(N)ncnc65)C(O)C4O)CC3)nc2c1 (stereo not drawn)	male Sprague-Dawley rat	plasma	intraperitoneal	20 mg/kg	–	2030 ng/mL
CN1Cc2c(Cl)cc(Cl)cc2C(c2cccc(S(=O)(=O)NCCOCCOCCOCCNC(=O)C(O)C(O)C(=O)NCCOCCOCCOCCNS(=O)(=O)c3cccc(C4CN(C)Cc5c(Cl)cc(Cl)cc54)c3)c2)C1 (stereo not drawn)	male Sprague-Dawley rat	plasma	oral	9.4 mg/kg	–	6 ng/mL
Cn1cc(-c2cc(N3CCCCS3(=O)=O)ccc2N[C@H]2CC[C@H](C)CC2)c2cc[nH]c2c1=O (stereo in doubt)	Sprague-Dawley rat	plasma	oral	3 mg/kg	–	110 ng/mL
C[Si]1(C[C@@H](CN)CC(=O)O)CCCC1	male Sprague-Dawley rat	plasma	oral	30 mg/kg	single dose	34300 nM
C#Cc1cccc(Nc2ncnc3cc(OC)c(OCCCN4CCOCC4)cc23)c1	Sprague-Dawley rat	plasma	oral	40 mg/kg	–	1800 ng/mL
NC(COc1ccccc1C(F)(F)F)c1ccccc1 (stereo not drawn)	male Sprague-Dawley rat	serum	intravenous	5 mg/kg	–	250 ng/mL
Cc1cc(N2CCC(C#N)(C3(C)CC3)C2=O)cc(C(=O)NCc2cc(F)cc(-c3cnn(C)c3)c2)n1 (racemic)	male Sprague-Dawley rat	plasma	oral	3 mg/kg	–	900 nM
C[Si](C)(C)C[C@@H](CN)CC(=O)O	male Sprague-Dawley rat	plasma	oral	100 mg/kg	single dose	102000 nM
COc1cc2ncnc(Oc3ccc(Nc4nccc5[nH]cc(-c6ccc(F)cc6)c(=O)c45)cc3F)c2cc1OC	male Sprague-Dawley rat	plasma	intravenous	5 mg/kg	–	30700 ng/mL
CN1Cc2c(Cl)cc(Cl)cc2C(c2ccc(S(=O)(=O)NCCOCCOCCOCCNC(=O)C(O)C(O)C(=O)NCCOCCOCCOCCNS(=O)(=O)c3ccc(C4CN(C)Cc5c(Cl)cc(Cl)cc54)cc3)cc2)C1 (stereo not drawn)	male Sprague-Dawley rat	plasma	oral	10 mg/kg	–	< 5 ng/mL
CSCOC1C(=O)C2(C)C(OCSC)CC3OCC3(OC(C)=O)C2C(OC(=O)c2ccccc2)C2(O)CC(OC(=O)C(O)C(C=C(C)C)NC(=O)OC(C)(C)C)C(C)=C1C2(C)C (stereo not drawn)	female Sprague-Dawley rat	plasma	intravenous	2 mg/kg	–	264 ng/mL
CCCN(c1ccc(C(=O)NCCC(=O)O)cc1)S(=O)(=O)c1cc(C)c(-c2ccc(C(C)(C)C)cc2)c(C)c1	rat	plasma	oral	5 mg/kg	–	35.3 ng/mL
Cc1cc(/C=C/C#N)cc(C)c1Oc1nc(NC2CCN(Cc3ccc(P(C)(C)=O)cc3)CC2)nc2ccsc12	male Sprague-Dawley rat	plasma	intravenous	2 mg/kg	–	1780 ng/mL
CCc1c(Cl)cccc1N1CCN(C[C@H](F)CCNC(=O)c2cc3ccccc3[nH]2)CC1	male Long-Evans rat	plasma	oral	10 mg/kg	–	2130 nM
Cc1cc(/C=C2\CN(C(C)C)C/C(=C\c3cc(C)c(O)c(C)c3)C2=O)cc(C)c1O	female Sprague-Dawley rat	plasma	intravenous	20 mg/kg	–	3200 ng/mL

Some of these lines once more:
Compound	host	matrix	route	dose	setting	Cmax
CN1Cc2c(Cl)cc(Cl)cc2C(c2cccc(S(=O)(=O)NCCOCCOCCOCCNC(=O)C(O)C(O)C(=O)NCCOCCOCCOCCNS(=O)(=O)c3cccc(C4CN(C)Cc5c(Cl)cc(Cl)cc54)c3)c2)C1 (stereo not drawn)	male Sprague-Dawley rat	plasma	oral	9.4 mg/kg	–	6 ng/mL
NC(COc1ccccc1C(F)(F)F)c1ccccc1 (stereo not drawn)	male Sprague-Dawley rat	serum	intravenous	5 mg/kg	–	250 ng/mL
